Measured values of several laboratories.
Each numbered part is a random draw from the data of one study; scales do not carry over between parts. Substitutions count along the parent as printed.

Block 1
Target: UBE2D2 UBC core domain (UniProt P62837)
Chain of UniProt P62837 (whole entry, looked up): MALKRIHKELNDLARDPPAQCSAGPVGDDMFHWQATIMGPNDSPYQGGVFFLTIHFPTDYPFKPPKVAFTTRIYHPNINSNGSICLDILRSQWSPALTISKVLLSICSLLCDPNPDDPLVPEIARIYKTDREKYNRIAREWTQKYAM
Method: yeast two-hybrid
Matrix: yeast
Notes: mostly zero background
Reference: not given
Direction: higher = stronger interaction
Endpoint: lacZ reporter activity
B1: Ltn1 RING domain (UniProt Q6A009); chain VDKRFEGVEDCMICFSVIHGFNYSLPKKACRTCKKKFHSACLYKWFTSSNKSTCPLCRETFF
B1 (Ltn1 RING domain): 4740
QLRRLQEERTCKVCLDRAVSIVFVPCGHLVCAECAPGLQLCPICRAPVRSRVRTF (BIRC7 RING domain (UniProt Q96CA5)): 0
MDDQGCPRCKTTKYRNPSLKLMVNVCGHTLCESCVDLLFVRGAGNCPECGTPLRKSNFRV (MNAT1 RING domain (UniProt P51948)): 0
KLWDINAHITCRLCSGYLIDATTVTECLHTFCRSCLVKYLEENNTCPTCRIVIHQSHPLQ (PCGF3 RING domain (UniProt Q3KNV8)): 0

Block 2
Target: CCNB2, cyclin fold, Cln2 fusion (human)
Method: yeast growth competition, sequencing
Matrix: yeast
Notes: weak parent motif
Reference: not given
Direction: higher = stronger binding
Endpoint: normalised enrichment score
Starting sequence: viral docking peptide; PGASRRLFGSSAD
PGASRRLFASSAD [G9A]: 0.582
PAASRRLFGSSAD [G2A]: 0.255
AGASRRLFGSSAD [P1A]: -0.223
PGASRRLFGASAD [S10A]: -0.0325
PGASRRLLGSSAD [F8L]: 0.648
PGAARRLFGSSAD [S4A]: 0.462
PGASRALFGSSAD [R6A]: -0.274
PGASARAFGSSAD [R5A L7A]: 0.297
PGASKRLLGSSAD [R5K F8L]: 0.0713

Block 3
Substance: IMMT (Homo sapiens, UniProt Q16891)
Method: cross-linking MS
Matrix: cell fractions
Together with: DSSO
Endpoint: cross-linked residues
APOO (Homo sapiens, UniProt Q9BUR5): K714 to K32
MICOS10 (Homo sapiens, UniProt Q5TGZ0): K726 to K74
EDRF1 (Homo sapiens, UniProt Q3B7T1): K110 to K196
SESTD1 (Homo sapiens, UniProt Q86VW0): K211 to S184

Block 4
Target: HLA class I histocompatibility antigen, A alpha chain, allele A*25:01 (Homo sapiens, UniProt P04439)
Read-out: peptide-MHC binding
Form: peptide
Tested at: concentration not given
Endpoint: binding
TMGPHPAGV: inactive
RTFGQPLFF: inactive
WAKLLKQKW: inactive

Some of these lines once more (block 2):
PGASRRLLGSSAD [F8L]: 0.648
PGAARRLFGSSAD [S4A]: 0.462
PGASRALFGSSAD [R6A]: -0.274
